Assay results of several laboratories.
Compare with care: the assays were run in different laboratories. “And” joins repeats or separate records; there may be more than shown.
Target: Glucocorticoid receptor (NR3C1, Homo sapiens, UniProt P04150)

With CN[C@@H]1[C@H](O)[C@H](NC)[C@H]2O[C@]3(O)[C@H](O[C@@H]2[C@H]1O)O[C@H](C)C[C@H]3NC(=O)Cc1ccc(Cl)cn1 the inhibition was 10% (ligand displacement, radioligand; 10 µM).
For CS(C)(=O)=Nc1ccc(-c2ccc(-c3nc4cc(O[C@@H]5CO[C@H]6[C@@H]5OC[C@H]6O)[nH]c4cc3F)cc2)cc1, the inhibition was 22% (ligand displacement, radioligand; 10 µM).
The inhibition of Cc1ccc2c(n1)c(-c1cccc(S(C)(=O)=O)c1)c(C)n2C/C(F)=C/CN is reported as 9% (ligand displacement, radioligand; 10 µM).
Cc1cc(Nc2nc(C[C@@]3(C(=O)O)CCN(Cc4cccc(Cl)c4F)[C@H](C)C3)cc(C)c2F)[nH]n1 gave an activation of -3.65% (agonist; 10 µM).
The specific binding of O=C(O)c1ccc(-c2nc(-c3ccccc3Cl)c3sccn23)cc1 is reported as 96.1% and 94% (radioligand binding, safety screen panel; 10 µM; relative to: control).
CCc1nnc(-c2c(OC)cc(-c3cnc4cc(-c5cnn(C)c5)ccn34)cc2OC)o1 has a remaining binding of 103% (agonist radioligand, radioligand binding; 10 µM, SafetyScreen44 GR mean; lower = stronger displacement).
CCOC(=O)[C@](CC)(CCCSCCOCCOCCNC(=O)c1ccc(-c2c3ccc(=N)c(S(=O)(=O)O)c-3oc3c(S(=O)(=O)O)c(N)ccc23)c(C(=O)O)c1)NC(=O)c1ccc(C2CC2)c(Cc2ccc(F)cc2)n1 has an inhibition of 33% (ligand displacement, radioligand; 10 µM).
The inhibition of C/C(=N\OCCCN1CCCCC1)c1ccc(C(F)(F)F)cc1 is reported as -4.98% (reporter gene, antagonist, luciferase reporter; 10 µM).
The inhibition of C[C@H](NCc1ccc(-c2ccc(C(F)(F)F)cc2)cc1)C(N)=O is reported as 7% (radioligand binding, SafetyScreen panel; 1 µM, with: 5.0 nM [3H]Dexamethasone).
With N[C@H](C(=O)N1CCCC1)C1CCN(c2nccc3c(-c4ncc(Cl)cc4Cl)cccc23)CC1 the inhibition was -8% (ligand displacement, radioligand; 10 µM).
The inhibition of COc1ccc(F)cc1S(=O)(=O)Nc1cnc2c(c1)C(=O)NCCO2 is reported as -6% (ligand displacement, radioligand; 10 µM).
CCN(CC)CCOc1ccc(-c2nnn(Cc3ccc(OC)cc3)c2N)cc1 has an inhibition of 2.68% (radioligand binding; IM-9; 10 µM, with: 10000 nM radioligand).

A few entries again:
The specific binding of O=C(O)c1ccc(-c2nc(-c3ccccc3Cl)c3sccn23)cc1 is reported as 96.1% and 94% (radioligand binding, safety screen panel; 10 µM; relative to: control).
